Measurements gathered from unrelated publications.
Each line is one published result; not all experiments were run side by side. Numbers after ± are the reported error.
Organism: Candida albicans

SMILES	assay	test system	conditions	how to read	measurement	value
CO[C@H]1[C@H](O[C@H]([C@H]2O[C@@H](n3ccc(=O)[nH]c3=O)[C@H](O)[C@@H]2O)[C@H](NCCCNC(=O)[C@@H](NC(=O)[C@@H](NC(=O)N[C@H](C(=O)O)C(C)C)[C@@H]2CCN=C(N)N2)[C@@H](O)C(C)C)C(=O)O)O[C@H](CN)[C@H]1O	alamar blue	18 M	–	–	MIC50	> 35 µg/mL
Cl.Oc1cccc2c1[nH]c1c(C3=CC4(O)CC/C=C\CCCCN5CCC3C3(CC6/C=C\CCCCN6C43)C5)nccc12 (single isomer, unassigned; (+))	growth	ATCC 90028	–	–	IC50	3 ± 0.01 µg/mL
Fc1ccccc1N/N=C/c1ccc(-c2cccc(/C=N/Nc3ccccc3F)c2)cc1	–	ATCC MYA-1237 resistant	–	relative to: mammalian CC50 over MIC	selectivity index	< 0.5
OC(Cn1cncn1)(Cn1cncn1)c1ccc(F)cc1F	broth microdilution	30	24 h, compound alone	–	MIC	1 µg/mL
C(=N\Nc1ccccc1)/c1ccc(-c2ccc(/C=N/Nc3ccccc3)cc2)cc1	–	ATCC MYA-2876 susceptible	–	relative to: mammalian CC50 over MIC	selectivity index	< 0.6
CC(C)c1ccc(/C=C2\N=C(SCC(=O)c3ccccc3)N(c3ccccc3)C2=O)cc1	–	ATCC 10231	concentration not given	–	inhibition zone diameter	12 ± 0.05 mm
Cc1n[nH]c2ccc(-c3cc(OC[C@@H](N)Cc4ccccc4)cnc3-c3ccoc3)cc12	binding, MIB/MS competition	Candida albicans cell lysate	10 µM, besides Yck2 and Hog1	–	number of kinases	30
CCOC(=O)CSC1=N/C(=C\c2ccc(C(C)C)cc2)C(=O)N1c1ccccc1	–	ATCC 10231	concentration not given	–	inhibition zone diameter	11 ± 0.57 mm
OC(Cn1cncn1)(Cn1cncn1)c1ccc(F)cc1F	–	56214 clinical isolate, compound-resistant, RPMI-MOPS	48 h, 37 °C	–	MIC	128 µM
CC(=O)ON=C1C=CC(=C(C#N)c2ccccc2)C=C1	planktonic growth	Sabouraud glucose broth	2 µg/mL, 30 °C, at MIC	–	growth	inhibited
CCCCCOc1ccc(-c2ccc(-c3ccc(C(=O)N[C@H]4C[C@@H](O)[C@@H](OCC[N+](C)(C)C)NC(=O)[C@@H]5[C@@H](O)[C@@H](C)CN5C(=O)[C@H]([C@@H](C)O)NC(=O)[C@H]([C@H](O)[C@@H](O)c5ccc(O)cc5)NC(=O)[C@@H]5C[C@@H](O)CN5C(=O)[C@H]([C@@H](C)O)NC4=O)cc3)cc2)cc1	–	98-17, neutropenic mice, disseminated candidiasis	dose not given, 24 h AUC over 7 days	–	free AUC/MIC for 1-log kill	6.4
C[C@@H]1[C@H](O)[C@@H](C)/C=C/C=C/C=C/C=C/C=C/C=C/C=C/[C@H](O[C@@H]2O[C@H](C)[C@@H](O)[C@H](N)[C@@H]2O)C[C@@H]2O[C@](O)(C[C@@H](O)C[C@@H](O)[C@H](O)CC[C@@H](O)C[C@@H](O)CC(=O)O[C@H]1C)C[C@H](O)[C@H]2C(=O)O	–	–	concentration not given, lipid-supplemented medium, together with: ergosterol, PC or PI supplement	–	antifungal activity	no effect
C[C@@H]1[C@H](O)[C@@H](C)/C=C/C=C/C=C/C=C/C=C/C=C/C=C/[C@H](O[C@@H]2O[C@H](C)[C@@H](O)[C@H](N)[C@@H]2O)C[C@@H]2O[C@](O)(C[C@@H](O)C[C@@H](O)[C@H](O)CC[C@@H](O)C[C@@H](O)CC(=O)O[C@H]1C)C[C@H](O)[C@H]2C(=O)O	–	56214 clinical isolate, fluconazole-resistant, RPMI-MOPS	48 h, 37 °C	–	MIC	1 µM
O=C1C(Br)=C(Br)C(=O)c2ccccc21	–	ATCC 60193	concentration not given, 24 h, 35 °C, no effect, together with: exogenous ergosterol	–	MIC change	no effect
OC(Cn1cncn1)(Cn1cncn1)c1ccc(F)cc1F	XTT, preformed biofilm	ATCC 60193	2 × MIC, 24 h	–	biofilm mass reduction	65 to 68%
CC(C)c1ccc(/C=C2\NC(=S)N(c3ccccc3)C2=O)cc1	–	ATCC 10231	concentration not given	–	inhibition zone diameter	12 ± 0.16 mm
OC(Cn1cncn1)(Cn1cncn1)c1ccc(F)cc1F	EUCAST	YMS_102.2	48 h	–	MIC50	100 µM
O=C1/C(=C/c2ccc([N+](=O)[O-])cc2[N+](=O)[O-])NC(=S)N1c1ccccc1	–	ATCC 10231	concentration not given	–	inhibition zone diameter	15 ± 0.08 mm
CC(=O)C1=NN(c2ccc([N+](=O)[O-])cc2)C(=C(C#N)C(=O)c2ccc(Nc3cnccn3)cc2)S1	–	ATCC 10231	concentration not given	–	inhibition zone diameter	46 mm
CC(C)c1ccc(/C=C2\N=C(SCc3ccccc3)N(c3ccccc3)C2=O)cc1	–	ATCC 10231	concentration not given	–	inhibition zone diameter	12 ± 0.15 mm
Fc1cccc(N/N=C/c2ccc(-c3cccc(/C=N/Nc4cccc(F)c4)c3)cc2)c1	–	ATCC MYA-2310 susceptible	–	relative to: mammalian CC50 over MIC	selectivity index	< 0.4

Repeated from above:
SMILES	assay	test system	conditions	how to read	measurement	value
CC(=O)C1=NN(c2ccc([N+](=O)[O-])cc2)C(=C(C#N)C(=O)c2ccc(Nc3cnccn3)cc2)S1	–	ATCC 10231	concentration not given	–	inhibition zone diameter	46 mm
OC(Cn1cncn1)(Cn1cncn1)c1ccc(F)cc1F	–	56214 clinical isolate, compound-resistant, RPMI-MOPS	48 h, 37 °C	–	MIC	128 µM
